Experimental data collected from several papers.
Each numbered part is a random draw from the data of one study; scales do not carry over between parts. Positions count from the first letter of the parent shown.

Block 1 — target: CCND3, cyclin fold, Cln2 fusion (human); method: yeast growth competition, sequencing; matrix: yeast; notes: weak parent motif; relative to: not given; direction: higher = stronger binding
Parent: SLBP docking peptide (human); ARYKRKLLINDFG
| Change | normalised enrichment score |
| --- | --- |
| Y3L | 0.2 |
| D11Q | 0.259 |
| K4V | 0.121 |
| R5K | 0.322 |
| I9G | 0.0273 |
| R5D | 0.174 |
| L7F | 0.154 |
| R2S | 0.047 |
| I9L | 0.147 |
| L7P | 0.122 |
| R2W | 0.141 |
| G13P | 0.188 |
| R5Q | 0.0797 |
| Y3A | 0.207 |
| G13K | 0.188 |
| D11E | 0.2 |
| D11I | 0.171 |
| F12K | 0.0662 |
| N10M | 0.139 |
| A1L | 0.164 |
| K4P | 0.108 |
| N10W | 0.157 |
| F12H | 0.0741 |
| I9T | 0.164 |
| A1D | 0.171 |

Block 2 — method: protein binding microarray; molecule type: double-stranded DNA, one strand shown; matrix: in vitro; concentration: not given; relative to: not given; direction: higher = stronger binding
Target: Histone acetyltransferase KAT6A, winged helix 2, GST fusion (KAT6A, Homo sapiens, UniProt Q92794, residues 85-181)
Notes: 8-mer, flanks averaged, mean of 2 arrays, mostly near background
Residues (chain): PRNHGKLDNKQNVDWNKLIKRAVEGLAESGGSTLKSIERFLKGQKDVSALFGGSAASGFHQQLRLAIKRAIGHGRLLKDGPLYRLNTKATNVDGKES
| Oligonucleotide | E-score |
| --- | --- |
| CGAGCGGC | 0.236 |
| ACGAATGA | -0.0498 |
| CCAGAGAG | -0.0976 |
| CTGTTTGA | -0.0176 |
| ATAGCGCC | 0.0406 |
| GCATATGA | -0.106 |
| CCACGCCA | -0.00312 |
| AGTTTAGA | -0.143 |
| GAAAGACC | -0.112 |
| ACGAGAAG | -0.0925 |
| CGAAAGCG | 0.0374 |
| GCCCGCAA | 0.155 |
| CGTGGAAG | -0.0135 |
| ATACAGAC | 0.0285 |
| GAACGTTC | -0.309 |
| AGCTTAGA | -0.0055 |
| AGGGGCAC | 0.0791 |
| AGAAGGCG | 0.0192 |
| CGGTCGAG | -0.0143 |

Block 3 — method: DHFR PCA, deep sequencing; matrix: yeast; added: (+)-ABA 2500 µM; relative to: wild-type fitted maximum; direction: higher = stronger binding
Target: ABI1, truncated, D143A, DHFR fusion (Arabidopsis thaliana)
Notes: methotrexate growth selection, single substitutions
Parent: PYL1, truncated, DHFR fusion (Arabidopsis thaliana); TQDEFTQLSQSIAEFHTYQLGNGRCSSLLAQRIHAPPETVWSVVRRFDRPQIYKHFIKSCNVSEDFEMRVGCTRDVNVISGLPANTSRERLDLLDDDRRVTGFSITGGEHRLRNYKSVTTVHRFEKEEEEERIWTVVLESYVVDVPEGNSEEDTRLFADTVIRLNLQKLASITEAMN
| Change | relative binding score |
| --- | --- |
| K58R | 96.1% |
| E14P | 66.2% |
| N22C | 98.8% |
| T73N | 93.5% |
| E109R | 98.8% |
| P50G | 15.5% |
| I12L | 89.9% |
| A158R | 1.87% |
| A35T | 89.1% |
| V161H | 55.1% |
| A30D | 92.6% |
| A84E | 62.5% |
| R98V | 108% |
| V142E | 93.1% |

Block 4 — method: RNA Bind-n-Seq; molecule type: RNA; matrix: in vitro; concentration: 365 nM; relative to: no-protein control; direction: higher = stronger binding
Target: RNA binding protein fox-1 homolog 2, RRM domain, GST-SBP tag (RBFOX2, Homo sapiens, UniProt O43251-10, residues 100-194)
Notes: natural RNA segment, single round, ends assumed
| Oligonucleotide | RBNS enrichment (R) |
| --- | --- |
| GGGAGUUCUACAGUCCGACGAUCCUUUCUACCUCCCUUUUCGUUGCCUGAGGAGCUGGUGGUUUCAUGAGUUAAUGAUACAUCUUGCAAGGUGUACACAUAGAGAAAAAAACCUAAAAAUGUGGAAAAGCACGUGGAAUUCUCGGGUGCCAA | 4.06 |
| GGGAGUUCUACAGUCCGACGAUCGAAAUAAGUGACCCAACAAAAUUUAUUCAUCUGUUAUGGGUAAGAUCUGCCAUAAAUUCUUCCUAAAUAAUUUGUUUACUAACUCUUUAGGCCACUGUGCUUUGCGGUCCUGGAAUUCUCGGGUGCCAA | 0.557 |
| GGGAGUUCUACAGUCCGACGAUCUCCUUUUGAAUUACUGGGCAGGGAGGUGAGUGGAUGACUUAAUGAUUUCAUGAAUGAAAUAAAGAUUUGUUAGUGGGAAGCAAAUAAAACACAUUAAGUUGAUUGAGUUGUGGAAUUCUCGGGUGCCAA | 1.7 |
| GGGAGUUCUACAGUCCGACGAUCUGAAUGAUGCAUUAAUUACUGACUGUCCUAGUACAUUGGAAGCUUUUGUUUAUAGGAACUUGUAGGGCUCAUUUUGGUUUCAUUGAAACAGUAUCUAAUUAUAAAUUAGCUGGAAUUCUCGGGUGCCAA | 1.14 |
| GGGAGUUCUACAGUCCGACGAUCGAAAGGCAGAAAGUUUACAAAUUAGACACUGGGUAUUUUUUAAGAACCUUCAGUGGAAGCAUGUCAUCAAUUCAUCACAGGCCUUUCCUGUCUUUGAAUUAGAAUCCAGAUGGAAUUCUCGGGUGCCAA | 11.2 |
| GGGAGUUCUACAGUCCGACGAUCUUAAUUCGAAACAACUUGCAGUAUGCAUUUCUUCACACCAGUACAUUCUUAAGUGUACUUGUUUAUAAGGAAUAACAUAAACUAAUCUGUACCUUUAUAUAUAUGUGUGUUGGAAUUCUCGGGUGCCAA | 0.447 |
| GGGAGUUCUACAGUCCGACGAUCUCCCAGUCUGCCAGAGCCUGCACAUCAAAUAAGUGACCAUUGGAAGUAGGGUGGGGAAGUGUGGAGGAGGUGACUGGCCUGCCUCAAAUGCAUGUUUUGAGAUGUUUGACUGGAAUUCUCGGGUGCCAA | 31.9 |
| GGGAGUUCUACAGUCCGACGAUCUUCAGAAAUAAUUAUUCAUUUUUAAAAAGCCCCUUUUAAAGCAUCUACUUGAAGAUUGGUAUAAUUUUCAUAAAAUGUCUUUUUUUUUAGUGUCCCAAAGAUAUCUUAGAUGGAAUUCUCGGGUGCCAA | 0.772 |

Block 5 — method: RNA Bind-n-Seq; molecule type: RNA; matrix: in vitro; concentration: not given; relative to: input RNA pool; direction: higher = stronger binding
Target: RING finger protein unkempt homolog, zinc fingers 1-6, GST-SBP tag (UNK, Homo sapiens, UniProt Q9C0B0, residues 30-357)
UniProt Q9C0B0, sequence (30-357, looked up): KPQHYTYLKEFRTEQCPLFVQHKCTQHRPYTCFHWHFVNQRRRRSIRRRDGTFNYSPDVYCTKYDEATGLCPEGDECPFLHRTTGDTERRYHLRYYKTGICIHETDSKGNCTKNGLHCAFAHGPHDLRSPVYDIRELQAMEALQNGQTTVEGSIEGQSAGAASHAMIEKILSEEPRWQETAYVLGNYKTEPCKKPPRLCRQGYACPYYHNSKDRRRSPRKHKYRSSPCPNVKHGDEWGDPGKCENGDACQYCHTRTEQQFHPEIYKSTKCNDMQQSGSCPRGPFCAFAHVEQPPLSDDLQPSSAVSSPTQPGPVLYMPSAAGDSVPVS
Notes: RNA with constant flanks, human and mouse sites, ends assumed
| Oligonucleotide | bound/input enrichment [ratio] |
| --- | --- |
| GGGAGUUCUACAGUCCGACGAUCGGCCUUCGAGGAAGAGGCCCACCUCCUUCAUGGGCCUCUGAGCCUGAACGCCCAUCCAUUCUUAGUGCAUCAGAACUGAAGGAGCUUGAUAAAUUUGAUAACCUAGAUGCUGAAGCUGAUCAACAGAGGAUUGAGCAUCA | 0.368 |
| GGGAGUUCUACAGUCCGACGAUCAAUCAAAAAUUGGGGCACCCCGAAGCUCUUUCUGCUGGCACAGGCUCCCCUCAACCUCCCAGCUUCACCUAUGCCCAGCAGAGGGAGAAGCCCCGAGUGCAGGAGAAGCAGCACCCCGUGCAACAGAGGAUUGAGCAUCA | 0.11 |
| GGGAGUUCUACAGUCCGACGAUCAGACAUUUUAAGGACCUCAGGUUCAUUAAAAAGGACUUAGAACUUUUCUCAAAUCCAUUUAGCUUUAAACCGGAAUAUGCGCCUAUUUCUGUAAGAGUGGAGCUAACAAAACUUCAGGCCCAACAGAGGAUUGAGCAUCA | 1.05 |
| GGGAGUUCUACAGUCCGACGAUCGUGUUCCCCUUUGUGGGUGGGUUCCUAUGAUACUUAUUAUAGAACACAGUGGAUCCUUUUUGAAUGUUCGUGGAAGGGCCAGGAGUUCCUGUGAAACCAGGAUACUGCAGCUUUAUUAAACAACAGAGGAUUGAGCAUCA | 0.244 |
| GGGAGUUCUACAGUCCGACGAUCGAAAAUCCAUAUGACCUUGAUGCUUGGAGCAUUCUCAUUCGAGAGGCACAGAAUCAACCUAUAGACAAAGCACGGAAGACUUACGAACGCCUUGUUGCCCAGUUCCCCAGUUCUGGCAGACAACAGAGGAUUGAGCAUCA | 0.148 |
| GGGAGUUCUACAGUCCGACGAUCCGUUCAAUGUGUAUGUAACUGAGUGCUGGAAUCCCAGAAGUGCAUGUUUGUACUCGUGUCCGCCUGAAGCUUGGGGUAAAUGGAAUCCUCCCUGAGGUUGUUUGGUGAGGCCUUGCGCUUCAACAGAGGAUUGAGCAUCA | 0.185 |
| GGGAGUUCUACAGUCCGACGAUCGGUGGUGCCACACGAAUCCCUGCAGUGAAAGAGAAGAUCAGCAAGUUUUUUGGUAAAGAACUCAGCACAACAUUAAAUGCAGAUGAAGCUGUCACUCGAGGCUGUGCUCUGCAGUGUGCACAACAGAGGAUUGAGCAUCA | 0.323 |
| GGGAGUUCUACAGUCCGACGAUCAUUCAUUUUUAAUUUUAAUUUUAUUUUAUACAACGUGUAGACGGUUCCCUGUUCUCUGCAUUUAGAAGUAUACACAGUACAACUGUUAAUUCUGUAAGUAAUUUUUAUAAUUAUGAUGUACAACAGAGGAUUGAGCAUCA | 8.9 |

Repeated from above (block 4):
| Oligonucleotide | RBNS enrichment (R) |
| --- | --- |
| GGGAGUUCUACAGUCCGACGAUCUUAAUUCGAAACAACUUGCAGUAUGCAUUUCUUCACACCAGUACAUUCUUAAGUGUACUUGUUUAUAAGGAAUAACAUAAACUAAUCUGUACCUUUAUAUAUAUGUGUGUUGGAAUUCUCGGGUGCCAA | 0.447 |
| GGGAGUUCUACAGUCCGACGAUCGAAAGGCAGAAAGUUUACAAAUUAGACACUGGGUAUUUUUUAAGAACCUUCAGUGGAAGCAUGUCAUCAAUUCAUCACAGGCCUUUCCUGUCUUUGAAUUAGAAUCCAGAUGGAAUUCUCGGGUGCCAA | 11.2 |
| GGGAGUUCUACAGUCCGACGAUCGAAAUAAGUGACCCAACAAAAUUUAUUCAUCUGUUAUGGGUAAGAUCUGCCAUAAAUUCUUCCUAAAUAAUUUGUUUACUAACUCUUUAGGCCACUGUGCUUUGCGGUCCUGGAAUUCUCGGGUGCCAA | 0.557 |
| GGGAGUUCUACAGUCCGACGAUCCUUUCUACCUCCCUUUUCGUUGCCUGAGGAGCUGGUGGUUUCAUGAGUUAAUGAUACAUCUUGCAAGGUGUACACAUAGAGAAAAAAACCUAAAAAUGUGGAAAAGCACGUGGAAUUCUCGGGUGCCAA | 4.06 |
| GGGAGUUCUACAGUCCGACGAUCUCCCAGUCUGCCAGAGCCUGCACAUCAAAUAAGUGACCAUUGGAAGUAGGGUGGGGAAGUGUGGAGGAGGUGACUGGCCUGCCUCAAAUGCAUGUUUUGAGAUGUUUGACUGGAAUUCUCGGGUGCCAA | 31.9 |
| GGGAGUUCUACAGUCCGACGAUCUCCUUUUGAAUUACUGGGCAGGGAGGUGAGUGGAUGACUUAAUGAUUUCAUGAAUGAAAUAAAGAUUUGUUAGUGGGAAGCAAAUAAAACACAUUAAGUUGAUUGAGUUGUGGAAUUCUCGGGUGCCAA | 1.7 |
| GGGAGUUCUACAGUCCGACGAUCUGAAUGAUGCAUUAAUUACUGACUGUCCUAGUACAUUGGAAGCUUUUGUUUAUAGGAACUUGUAGGGCUCAUUUUGGUUUCAUUGAAACAGUAUCUAAUUAUAAAUUAGCUGGAAUUCUCGGGUGCCAA | 1.14 |
| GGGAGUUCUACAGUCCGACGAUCUUCAGAAAUAAUUAUUCAUUUUUAAAAAGCCCCUUUUAAAGCAUCUACUUGAAGAUUGGUAUAAUUUUCAUAAAAUGUCUUUUUUUUUAGUGUCCCAAAGAUAUCUUAGAUGGAAUUCUCGGGUGCCAA | 0.772 |
